Measurements pooled from the literature.
Lines come from different studies, so protocols differ. Values joined by “and” are separate records of one study, mostly repeats; a detail may differ. Converted amounts (≈) assume the structure as drawn.

SMILES | cell line | assay | test system | conditions | how to read | endpoint | value
CC[C@H](C)[C@H](NC(=O)CNC(=O)[C@@H](N)CCCCN)C(=O)N[C@@H](CC(C)C)C(=O)N[C@@H](CCCCN)C(=O)N[C@@H](CCCNC(=N)N)C(=O)N[C@@H](CCC(=O)O)C(=O)N[C@@H](CCCCN)C(=O)N[C@@H](CCCNC(=N)N)C(=O)N[C@@H](CC(C)C)C(=O)N[C@@H](CCCNC(=N)N)C(=O)N[C@@H](CCCNC(=N)N)C(=O)N[C@@H](CCCCN)C(=O)N[C@@H](CC(N)=O)C(=O)N[C@H](C(=O)N[C@@H](Cc1c[nH]cn1)C(=O)N[C@@H](Cc1c[nH]c2ccccc12)C(=O)N1CCC[C@H]1C(=O)N[C@@H](CCC(=O)O)C(=O)N[C@@H](CCC(=O)O)C(=O)NCC(=O)N[C@@H](CCCCN)C(=O)N[C@@H](CC(C)C)C(=O)N[C@@H](CCCNC(=N)N)C(=O)N[C@@H](CCC(=O)O)C(=O)N[C@@H](Cc1ccccc1)C(=O)N[C@@H](Cc1ccccc1)C(=O)N[C@@H](Cc1ccccc1)C(=O)N[C@@H](Cc1ccccc1)C(=O)N[C@@H](CCC(=O)O)C(=O)N[C@@H](CC(C)C)C(=O)N[C@@H](CC(=O)O)C(=O)N[C@@H](CCC(=O)O)C(=O)N[C@@H](C)C(=O)N[C@@H](CCC(=O)O)C(=O)N[C@@H](CCCNC(=N)N)C(=O)N[C@H](C(=O)N[C@@H](CC(N)=O)C(=O)N[C@H](C(=O)O)C(C)C)C(C)C)C(C)C | HeLa (mitotic) | protein phosphorylation, TMT phosphoproteomics, measured: histone H3.1 Ser29 | cell lysate | concentration not given, 15 min | baseline: treated over control | log2 fold change | 2.66
COc1ccc2c(c1)[nH]c1c(C)nccc12 | DU-145 | bisulfite pyrosequencing, measured: RASSF1A promoter CpG site 2 | – | concentration not given | baseline: vehicle | methylation reduction | 0%
CC(C)N1CCC(NC2CCN(c3cccc(-c4cc5cc(F)ccc5[nH]4)c3)CC2)CC1 | EKVX | – | – | – | – | GI50 | 1.65 µM
C[C@]12CC[C@H](O)C[C@H]1CC[C@@H]1[C@@H]2CC[C@]2(C)[C@@H](c3ccc(=O)oc3)CC[C@]12O | MCF7 | RT-qPCR, measured: NRIP1 | – | 20 nM, 48 h, without estradiol, unit not given | baseline: untreated | mRNA level | 0.598 and 0.594 and 0.596
COc1ccc(C(=O)Nc2ccc3c(c2)C=CCP(=O)(O)O3)cc1 | A-375 | cell proliferation, MTT | – | 100 µM, 72 h, normoxia | – | maximal inhibition | ~10%
Cc1cc(C(C)(C)c2ccc(O)c(C)c2)ccc1O | HepG2 spheroids | cell proliferation, flow cytometry, measured: Ki67 | – | 40 µM, 24 h | baseline: solvent control | inhibition | 18.5%
Cn1cncc1C1=CN(c2ncnc3[nH]cnc23)CCS1 | OVCAR-3 | – | – | ovarian cancer | – | CC50 | > 200 µM
COc1ccc([C@H]2c3[nH]c4ccc(Cl)cc4c3CCN2C(=O)Oc2ccc(Cl)cc2)cc1 | human dermal fibroblasts with PBMC | cytokine secretion, measured: MMP-1 | – | 0.1 µM, 48 h | – | inhibition | 23%
CC(C)(O/N=C(\C(=O)N[C@@H]1C(=O)N2C(C(=O)[O-])=C(C[n+]3ccccc3)CS[C@H]12)c1csc(N)n1)C(=O)O | Escherichia coli DH5α expressing KPC-2 | bacterial growth | – | – | – | MIC | 16 µg/mL (≈ 29.3 µM)
CN[C@@H]1C[C@H]2O[C@@](C)([C@@H]1OC)n1c3ccccc3c3c4c(c5c6ccccc6n2c5c31)C(=O)NC4 | Caco-2 | qRT-PCR, measured: Bax | – | IC50 | baseline: untreated | mRNA fold change | 7.65
CN1CCN(C2(CNC3CCN(c4cccc(-c5cc6cc(F)ccc6[nH]5)c4)CC3)CCC2)CC1 | EKVX | – | – | – | – | CC50 | 6.06 µM
COc1c(CCC[P+](c2ccccc2)(c2ccccc2)c2ccccc2)cc2c(c1OC)OCO2.[I-] | SK-MEL-5 | SRB | – | – | – | TGI | -5.55 log M
C/C1=C/C(=O)O[C@@H]2C[C@@H](CC[C@H](C)/C=C\C=C\CC1)O[C@@](OCCc1ccccc1)([C@@H]1CSC(=O)N1)C2 | MDA-MB-231 | MTT | – | 1.0 µM | – | cell killing | 17%
CN(C)NC(=O)CCC(=O)O | OCI-Ly1 | – | – | 0.1 µM, 120 h | – | viability | 129%
CC[C@@]1([C@@H]2O[C@@H]([C@H]3O[C@@](O)(CO)[C@H](C)C[C@@H]3C)C[C@@H]2C)CC[C@H]([C@]2(C)CC[C@]3(C[C@H](O)[C@@H](C)[C@@H]([C@@H](C)[C@@H](OC)[C@H](C)C(=O)O)O3)O2)O1 | MCF-10A | cell viability | – | – | baseline: MCF-10A over cancer cells | selectivity index | 0.3
Cn1nccc1Nc1nccc(-c2cc3c(s2)C(C)(C)N(CCN2CCOCC2)C3=O)n1 | HCT116 | IncuCyte | – | concentration not given, 48 (unit not given) | – | PI-positive cells | 29.4 count and 41.8 count and 44 count
C/C=C(/C)C(=O)O[C@H]1C(C)=C2[C@H]([C@@H]1OC(=O)CCCCCCC)[C@@](C)(OC(C)=O)C[C@H](OC(=O)CCC)[C@@]1(O)[C@H]2OC(=O)[C@@]1(C)O | HEK-293T | RNA-seq GSEA, measured: Hallmark pancreas beta cells | – | 500 nM, 6 h | direction not given | normalized enrichment score | 1.43
COc1cc(CCC[P+](c2ccccc2)(c2ccccc2)c2ccccc2)c(OC)c2c1OCO2.[I-] | MDA-MB-468 | SRB | – | – | – | TGI | -6.02 log M

Excerpt of the above:
SMILES | cell line | assay | test system | conditions | how to read | endpoint | value
CN[C@@H]1C[C@H]2O[C@@](C)([C@@H]1OC)n1c3ccccc3c3c4c(c5c6ccccc6n2c5c31)C(=O)NC4 | Caco-2 | qRT-PCR, measured: Bax | – | IC50 | baseline: untreated | mRNA fold change | 7.65
Cn1nccc1Nc1nccc(-c2cc3c(s2)C(C)(C)N(CCN2CCOCC2)C3=O)n1 | HCT116 | IncuCyte | – | concentration not given, 48 (unit not given) | – | PI-positive cells | 29.4 count and 41.8 count and 44 count
